Assay results of several laboratories.
± marks the error that the study gave.
Cell line: A549

C[C@@H]1C(=O)CC[C@@H]2[C@]1(C)CC[C@H]1[C@@]2(C)CC[C@@]2(C)[C@@H]3CC(C)(C)CC[C@]3(C)CC[C@]12C  IC50 (cell growth or viability, SRB): > 100 µM
Cc1c(C)c(C)[c-](C)c1C.OCc1ccnc(-c2[c-]cccc2)c1.[Cl-].[Ir+3]  IC50 (SRB; 24 h, 72 h recovery): 89 ± 1 µM
N#Cc1cccc(-c2ccc(=O)n(Cc3cccc(-c4ncc(OCC5CCN(CCCCCC(=O)Nc6cccc7c6C(=O)N(C6CCC(=O)NC6=O)C7=O)CC5)cn4)c3)n2)c1 (centres unmarked)  IC50 (cell growth or viability, CCK-8; 72 h): 1.64 µM
CCn1[c]([Au-][Cl])[n+](CC)c2ccc(C(=O)OC)cc21  IC50 (cell growth or viability, crystal violet; 72 h): 24 µM
COCC12CN(C)C3C4C(OC)C1C3(C(OC)CC2O)C1(O)CC2(O)C(OC)C(O)C4(O)C1C2OC(=O)c1ccccc1 (centres unmarked)  IC50 (cell growth or viability, MTT): 17.1 µM
CCCCCCCC(=O)NCCNC(=O)[C@]1(C)[C@@H]2CC[C@]3(C)[C@H](C(=O)C=C4[C@@H]5[C@@H](C)[C@H](C)CC[C@]5(C)CC[C@]43C)[C@@]2(C)CC[C@H]1OC(C)=O  IC50 (cell growth or viability, MTT; 48 h): 12.2 µM
N#Cc1ccc(-c2nc(N)[nH]c2C(=O)c2ccccc2)cc1  IC50 (cell growth or viability, SRB; 24 h): 0.314 µM
Cc1cc(C)c([N+]#[C][Pd-]([Cl])([Cl])=[C](Nc2cccc(CN[C](Nc3c(C(C)C)cccc3C(C)C)=[Au][Cl])c2)Nc2c(C)cc(C)cc2C)c(C)c1  IC50 (cell growth or viability): 30 µM
CCN1CCC2(CC1)C/C(=N\NC(=O)Nc1ccc([N+](=O)[O-])cc1)c1ccccc1O2  IC50 (cell growth or viability, MTT; 48 h): 21.7 µM
COc1cc(N(C)CCN(C)C)c(NC(=O)/C=C/c2ccc(Cl)cc2)cc1Nc1nccc(-c2cn(C)c3ccccc23)n1  IC50 (cell growth or viability, MTT; 72 h): 0.295 µM
N#Cc1c(F)c(F)c2nc(SCc3ccccc3)nc(N)c2c1F  IC50 (cell growth or viability, MTT; 96 h): 24.8 µM
CC(=O)O[C@@H]1CC[C@@]2(C)[C@@H](CC[C@]3(C)[C@@H]2C(=O)C=C2[C@@H]4[C@@H](C)[C@H](C)CC[C@]4(C)CC[C@]23C)[C@@]1(C)C(=O)NCCNC(=O)CCCCC[P+](c1ccccc1)(c1ccccc1)c1ccccc1  IC50 (cell growth or viability, MTT; 48 h): > 30 µM
Nc1cccc[n+]1Cc1cccc(C[n+]2ccccc2N)c1  IC50 (cell growth or viability, MTT; 72 h): 11.2 µM
Nc1ncnc2c1sc1sc3c(N)ncnc3c12  IC50 (cell growth or viability, MTT): 4.69 µM
Cc1ccc(C(=O)NCCNC(=O)[C@@]2(C)[C@H](O)CC[C@@]3(C)[C@H]2CC[C@]2(C)[C@@H]3C(=O)C=C3[C@@H]4[C@@H](C)[C@H](C)CC[C@]4(C)CC[C@]32C)cc1  IC50 (cell growth or viability, MTT; 48 h): 20.4 µM
Cc1ccc(C(C)C)cc1.Cc1ncc(CO)c(C=NNC2=Nc3ccccc3-c3[nH]c4ccc(Br)cc4c3C2)c1O.[Cl-].[Cl][Ru+]  IC50 (cell growth or viability, MTT; 96 h): 6 µM
COc1ccc(/C=C/C2=[N+]3C(=C(CO)c4c(C)cc(/C=C/c5ccc(OC)cc5)n4[B-]3(C)C)C(C)=C2)cc1  IC50 (phototoxicity, resazurin; together with: 645 nm light, 9.00 J/cm2): 1.5 ± 0.4 µM
[Cl-].[Cl-].[Ru+2].c1ccc2nc(-c3ccc4ccccc4n3)ccc2c1.c1ccc2nc(-c3ccc4ccccc4n3)ccc2c1.c1cnc2c(c1)ccc1cccnc12  IC50 (cell growth or viability; 72 h, dark): 31.3 µM
Cc1ccc(C(C)C)cc1.O=C(N=P12CN3CN(CN(C3)C1)C2)c1[c-]cccc1.[Cl-].[Ru+2]  IC50 (cell growth or viability, MTT; 24 h): > 125 µM
C=C(C)[C@@H]1CC[C@]2(C(=O)O)CC[C@]3(C)[C@H](CC[C@@H]4[C@@]5(C)CC[C@H](O[C@@H]6O[C@@H](C)[C@H](O)[C@@H](O)[C@H]6OC)C(C)(C)[C@@H]5CC[C@]43C)[C@@H]12  IC50 (cell growth or viability, fluorescence; 48 h): 4.2 µM
CCCC(=O)Oc1c(C)c(OC)c2c(/C=C/c3ccccc3)c(CC)c(=O)oc2c1C  IC50 (cell growth or viability, SRB; 72 h): > 50 µM
CC(C)=CCn1c2cccc(=O)c-2nc2ccccc21  IC50 (cell growth or viability, CCK-8; 72 h): 0.88 µM
O=C(Cn1cc(/C=C/C(=O)c2ccccc2)nn1)Nc1nc(-c2ccccc2)cs1  IC50 (cell growth or viability, MTT; 72 h): 0.13 µM
Cn1cnc(Cn2ccc3ccc(CNCc4[nH]c5ccccc5c4C4NC(=O)c5ccc(O)cc54)cc32)c1 (centres unmarked)  IC50 (cell growth or viability, ATP luminescence; 72 h): > 30 µM
CC(=O)[O][Pt]1([O]C(C)=O)[O]C(=O)C(=O)[O]1.NC1CCCCC1N  IC50 (cell growth or viability): 35.1 µM
COc1ccc(C=C2SC(N3N=C(c4cccs4)CC3c3ccc(F)cc3)=NC2=O)cc1 (centres unmarked)  IC50 (cell growth or viability, MTT): 6.53 µM
Cc1ccc(C2C([N+](=O)[O-])C(Cc3ccc(O)cc3)NC23C(=O)c2cccc4cccc3c24)cc1 (centres unmarked)  IC50 (cell growth or viability, MTT; 48 h): 35.8 µM
Cc1ccc(C2=NN(C3=NC(=O)/C(=C/c4ccc(Cl)cc4)S3)C(c3ccc(F)cc3)C2)cc1 (centres unmarked)  IC50 (cell growth or viability, MTT): 43.1 µM
[Cl-].[Cl-].[Ru+2].c1ccc(-c2ccnc3c2ccc2c(-c4ccccc4)ccnc23)cc1.c1cnc2c(c1)ccc1cccnc12.c1cnc2c(c1)ccc1cccnc12  IC50 (resazurin; 72 h, together with: indigo light 450 nm, 29.1 J/cm2): 0.8 µM
Cc1cc(C#N)cc(C)c1Oc1cc(Nc2ccc(C#N)cc2)nc2ccncc12  IC50 (48 h): > 128 µM
CC(C)=CCc1c(O)cc2oc3cc(O)c(O)c(CC=C(C)C)c3c(=O)c2c1O  IC50 (cell growth or viability; 48 h): 10.1 µM
CC(C)c1cccc(C(C)C)c1[N+]#[C][Pd-]([Cl])([Cl])=[C](Nc1cccc(CN[C](NC(C)(C)C)=[Au][Cl])c1)Nc1c(C(C)C)cccc1C(C)C  IC50 (cell growth or viability): > 100 µM
CC(=O)OC[C@]1(C)CCC[C@]2(CO)[C@@H]1CC[C@@]13C[C@@H](C[C@H](O)[C@H]12)[C@H](C)C3=O  IC50 (cell growth or viability, MTT): 9.8 µM
C=CC(=C)CC[C@]1(C)[C@H](C)CC[C@@]23C(=C[C@H](OC(=O)CCCCC)C[C@@H]12)[C@@H](OC(C)=O)O[C@H]3OC(C)=O  IC50 (cell growth or viability, SRB): 2.29 µM
CCN(CC)CCN1C(=O)c2ccc3c4cccc5cccc(c6ccc(c2c36)C1=O)c54  IC50 (cell growth or viability, SRB; 72 h): 4.1 µM
O=[N+]([O-])[O-].O=[N+]([O-])[O-].[Cu+2].[Cu+2].c1ccc(-c2nc(-c3ccc4c(c3)OCO4)n[n-]2)nc1.c1ccc(-c2nc(-c3ccc4c(c3)OCO4)n[n-]2)nc1  IC50 (cell growth or viability, MTT; 24 h): 5.26 µM
CC1=CC(C(F)(F)F)=[O+][Pt-2]([NH3+])([NH3+])[O]1.CC1=CC(C(F)(F)F)=[O+][Pt-2]([NH3+])([NH3+])[O]1.O=S(=O)([O-])[O-] (centres unmarked)  IC50 (cell growth or viability, MTT): 2.2 µM
C[O][Pt-2]1([Cl])([Cl])([O]C(=O)CCC(=O)OCCOC(=O)CCC(=O)[O][Pt-2]2([Cl])([Cl])([O]C)[NH2+]CC[N+]2(C)C)[NH2+]CC[N+]1(C)C  IC50 (cell growth or viability, MTT; 96 h): 193 µM
CC(C)=CCc1c(O)c(CC=C(C)C)c2occ(-c3ccc(O)c(O)c3)c(=O)c2c1O  IC50 (cell growth or viability, MTT): > 100 µM
CCCCN(CCCC)CC(O)COc1c2ccoc2c(OC)c2oc(CC)cc(=O)c12 (centres unmarked)  IC50 (cell growth or viability, MTT; 72 h): 26.3 µM
Cc1cc(C)c(N[C](NCc2cccc(N[C](Nc3c(C(C)C)cccc3C(C)C)=[Pd-]([Cl])([Cl])[C]#[N+]c3c(C(C)C)cccc3C(C)C)c2)=[Au][Cl])c(C)c1  IC50 (cell growth or viability): > 100 µM
